Experimental data from different studies.
Protocols differ between the studies behind these lines. “And” joins repeats or separate records; there may be more than shown. Numbers after ± are the reported error. Values after ≈ are worked out from the molar mass of the structure shown.
UniProt Q13188, sequence (whole entry, looked up): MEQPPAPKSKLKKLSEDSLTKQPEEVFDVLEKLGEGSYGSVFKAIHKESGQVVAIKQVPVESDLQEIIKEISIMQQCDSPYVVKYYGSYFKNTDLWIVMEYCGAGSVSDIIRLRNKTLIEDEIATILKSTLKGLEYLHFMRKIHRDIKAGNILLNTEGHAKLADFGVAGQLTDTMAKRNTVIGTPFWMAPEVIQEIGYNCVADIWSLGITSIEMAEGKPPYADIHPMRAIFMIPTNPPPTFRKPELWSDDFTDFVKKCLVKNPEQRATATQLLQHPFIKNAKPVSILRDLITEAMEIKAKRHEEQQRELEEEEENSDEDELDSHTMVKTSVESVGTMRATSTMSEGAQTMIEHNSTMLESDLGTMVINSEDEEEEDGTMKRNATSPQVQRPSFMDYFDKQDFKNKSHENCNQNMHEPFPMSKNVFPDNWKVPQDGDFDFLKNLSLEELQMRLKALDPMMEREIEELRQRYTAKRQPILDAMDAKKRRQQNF
UniProt Q16539, sequence (whole entry, looked up): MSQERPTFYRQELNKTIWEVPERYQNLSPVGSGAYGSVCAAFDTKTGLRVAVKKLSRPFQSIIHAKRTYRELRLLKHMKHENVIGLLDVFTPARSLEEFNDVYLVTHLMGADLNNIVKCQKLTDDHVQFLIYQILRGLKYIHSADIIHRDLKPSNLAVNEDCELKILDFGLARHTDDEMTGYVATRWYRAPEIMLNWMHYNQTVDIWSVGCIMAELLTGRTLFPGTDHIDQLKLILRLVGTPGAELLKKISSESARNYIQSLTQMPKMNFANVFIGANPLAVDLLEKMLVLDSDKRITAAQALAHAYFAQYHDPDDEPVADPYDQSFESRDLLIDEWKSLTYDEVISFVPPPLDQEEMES

CC(C)C[C@@H](NC(=O)[C@@H](CCCNC(=N)N)NC(=O)[C@@H](Cc1c[nH]cn1)NC(=O)[C@@H](Cc1c[nH]c2ccccc12)NC(=O)[C@@H](Cc1c[nH]cn1)NC(=O)[C@@H](Cc1ccccc1)NC(=O)[C@H](NC(=O)[C@@H](Cc1ccc(O)cc1)NC(=O)CNC(=O)CNC(=O)CCOCCOCCOCCNC(=O)CN1CCN(CC(=O)O)CCN(CC(=O)O)CC1)[C@H](C)O)C(=O)N[C@H](CC(N)=O)C(=O)N1CCC[C@@H]1C(=O)O [gallium-68 labelled]  absorbed dose (human male, from C57BL/6 mouse, osteogenic cells): 0.0131 ± 0.000116 mSv/MBq
CNC(=O)C[C@H](Cc1ccc(F)cc1)NC(=O)[C@@H](Cc1ccc(Cl)cc1Cl)NC(=O)[C@H](N)Cc1ccccc1C#N  remaining compound (CD-1 mouse, liver microsomes; 1 µM, time not given, epoxide hydrolase conditions): 94%
CC[C@H](C)[C@H](NC(=O)[C@H](CO)NC(=O)[C@H](Cc1ccc(O)cc1)NC(=O)[C@H](Cc1ccc(O)cc1)NC(=O)[C@H](CC(N)=O)NC(=O)CNC(=O)[C@H](CO)NC(=O)[C@H](Cc1ccc(O)cc1)NC(=O)[C@H](CO)NC(=O)[C@H](CO)NC(=O)[C@H](CC(N)=O)NC(=O)COCCOCCNC(=O)CN1CCN(CC(=O)O)CCN(CC(=O)O)CCN(CC(=O)O)CC1)C(=O)N[C@@H](CC(C)C)C(N)=O [copper-64 labelled]  tumour uptake (dynamic PET; mouse, tamoxifen-induced PDAC, tumor; intravenous, 0.1 µg/mouse, 1.4 min): 15.7 %ID/mL
CC1COC2=C1C(=O)C(=O)c1c2ccc2c1C(OC(=O)CNC(=O)C(N)CCC(=O)O)CCC2(C)C (mixture of isomers)  equilibrium solubility (saline; 24 h, 25 °C): 5140 µg/mL
COc1ccccc1-c1n[nH]c2nc(NC3CCN(C(=O)Cc4ccc(F)cc4F)CC3)ncc12  relative abundance (bead binding, competition bead pull-down, refers to: LINJ.30.3230; Leishmania donovani extract; 10 µM; relative to: vehicle): 0.85
Cc1ccccc1-c1ccc(-c2nc(-c3ccc(CN(C)CCCC(=O)O)c([18F])c3)no2)cc1C(F)(F)F  tracer uptake (rat, bone; 1 h): 0.07 %ID/g
Cc1cc(-c2ccc3ccccc3c2)nnc1NCCN1CCN(C)CC1  inhibition (ATP-dependent translocase ABCB1 (ABCB1, Homo sapiens, UniProt P08183); transport, inhibitor; 10000 nM): 4%
O=P1(O)CC=Cc2ccccc2O1  kinetic solubility (HPLC-UV; 50 mM PBS; 16 h, pH 7.4, 25 °C, upper limit 2.5 mg/mL): 2300 µg/mL (≈ 11.7 mM)
COc1ccccc1-c1n[nH]c2nc(N[C@H]3CC[C@H](NS(=O)(=O)CC(C)C)CC3)ncc12  relative abundance (bead binding, competition bead pull-down, refers to: LINJ.21.0920; Leishmania donovani extract; 10 µM; relative to: vehicle): 0.68
CC(C)(C)C(=O)OCOP(=O)(OCOC(=O)C(C)(C)C)C1CCCN(O)C1=O (stereo not drawn)  log GI50 (SK-MEL-5): -6.49 log M
O=C1NC(=O)c2c1c1cc(F)c[n+]3c1c1c2c2cc(O)ccc2[n]1[Ru-4]312([N]=C=S)[S+]3CC[S+]1CC[S+]2CC3 (stereo not drawn)  remaining activity (Mitogen-activated protein kinase 14 (MAPK14, Homo sapiens, UniProt Q16539); enzyme activity; 100 nM, human enzyme, together with: 10 µM ATP; relative to: untreated): 111%
CS(C)(=O)=Nc1ccc(-c2ccc(-c3nc4cc(O[C@@H]5CO[C@H]6[C@@H]5OC[C@H]6O)[nH]c4cc3F)cc2)cc1  inhibition (Receptor-type tyrosine-protein kinase FLT3 (FLT3, Homo sapiens, UniProt P36888); enzyme activity, inhibitor; 10 µM): -12%
C=Cc1c(C)c2cc3nc(c(CC(=O)[O-])c4[n-]c(cc5nc(cc1[n-]2)C(C)=C5CC)c(C)c4C(=O)[O-])C(CCC(=O)[O-])C3C.[Cu+2].[Na+].[Na+].[Na+] (stereo not drawn)  serum alkaline phosphatase (Wistar rat, female; oral, 250 mg/kg daily, 28 days): 164 ± 43.7 U/L
CC(=O)N[C@H](C(=O)N[C@@H](CCCC(=O)OC(C)(C)C)C(=O)N[C@@H](CCC1CCCCC1)C(=O)N[C@@H](CC(=O)O)C(=O)COC(=O)c1c(C)cccc1C)C(C)(C)C  blood concentration (C57BL/6N mouse, female, whole blood; intraperitoneal, dose not given, 0.08 h): 297 µM
CC(C)[C@H](NC(=O)[C@@H](NC(=O)[C@H](CCCNC(=N)N)NC(=O)[C@H](CCCNC(=N)N)NC(=O)[C@H](CCCNC(=N)N)NC(=O)[C@H](CCC(N)=O)NC(=O)[C@H](CCCNC(=N)N)NC(=O)[C@H](CCCNC(=N)N)NC(=O)[C@H](CCCCN)NC(=O)[C@H](CCCCN)NC(=O)[C@H](CCCNC(=N)N)NC(=O)CN)[C@@H](C)O)C(=O)N[C@H](C(=O)N[C@@H](CO)C(=O)N1CCC[C@H]1C(=O)O)[C@@H](C)O  organ weight (ICR mice, female, lung; intranasal, 20 mg/kg daily, 4 weeks): 0.348 ± 0.023 g
CSCC[C@@H]1NC(=O)[C@H](C(C)C)NC(=O)[C@H](CCCNC(=N)N)NC(=O)[C@@H]2CCCN2C(=O)CNC(=O)[C@@H](NC(=O)CNC(=O)[C@H](CO)NC(=O)CNC(=O)[C@H](CO)NC(=S)Nc2ccc(C[C@H]3CN(CC(=O)O)CCN(CC(=O)O)CCN3CC(=O)O)cc2)CSSC[C@@H](C(N)=O)NC(=O)[C@@H]2CCCN2C(=O)CNC(=O)[C@H](CCC(=O)O)NC(=O)[C@H](CC(=O)O)NC(=O)[C@H](CC(=O)O)NC(=O)CNC(=O)[C@H](CC(C)C)NC(=O)[C@H](Cc2c[nH]cn2)NC(=O)[C@H](CC(C)C)NC(=O)CNC(=O)[C@H](Cc2c[nH]cn2)NC1=O [copper-64 labelled]  blood distribution half-life (dynamic PET; CD rat, myocardial infarction, left ventricular blood pool; intravenous, 18.5 MBq): 2.2 ± 0.1 min
CCc1nn(C)c2nc(-c3ccc(C(=O)O)cc3)nc(NCc3ccccc3)c12  body weight (NSG mice; dose not given, day 15 of treatment): 22.3 g and 25 g and 23.7 g and 22.7 g
C#Cc1c(F)ccc2cc(O)cc(-c3ncc4c(N5CC6CCC(C5)N6C(=O)OC(C)OC(=O)CC5CCOCC5)nc(OC[C@@]56CCCN5C[C@H](F)C6)nc4c3F)c12 (stereo partly drawn)  compound remaining (chemical stability; simulated intestinal fluid; 1 µM, 30 min): 99.6%
CC(C)[C@@H]1NC(=O)CNC(=O)[C@H](CC(N)=O)NC(=O)[C@H](CCCNC(=N)N)NC(=O)[C@H](Cc2ccc(O)cc2)NC(=O)[C@H](C(C)C)NC(=O)[C@@H](NC(=O)[C@@H](NC(=O)[C@H](CC(N)=O)NC(=O)[C@H](Cc2c[nH]c3ccccc23)NC(=O)[C@H](C)NC(=O)[C@H](Cc2ccccc2)NC(=O)CNC(=O)[C@H](CCCCN)NC(=O)[C@H](Cc2ccccc2)NC(=O)[C@H](Cc2ccccc2)NC(=O)[C@H](CCCCN)NC(=O)OCC2c3ccccc3-c3ccccc32)C(C)C)CSSC[C@@H](C(=O)N[C@@H](Cc2c[nH]cn2)C(=O)N[C@@H](CCCNC(=N)N)C(=O)N[C@@H](CCCNC(=N)N)C(=O)N[C@@H](C)C(=O)N[C@@H](CC(N)=O)C(N)=O)NC(=O)[C@H](C(C)C)NC(=O)[C@H](CCCNC(=N)N)NC1=O  monocytes (ICR mice, blood; intraductal mammary, 5 mg/kg, day 5): 2.94 ± 0.16%
CC(C)N1CCCCC1C(=O)NC(Cc1ccc(-c2ccccc2)cc1)B(O)O (stereo not drawn)  Vd (rat, plasma; intravenous, 1 mg/kg): 2.3 L/kg
CN(C)[C@H]1C[C@@]23CC[C@@]4(O2)C(=CC[C@]2(C)[C@@H](c5ccc6ccncc6c5)CC[C@H]24)C=C3[C@@H](O)[C@@H]1O  inhibition (Serine/threonine-protein kinase 3 (STK3, Homo sapiens, UniProt Q13188); ATP probe labelling, inhibitor, KiNativ profiling; 0.1 µM): 1.8%
O=C1NC2(CC2)COc2ncc(F)cc2[C@H]2COCCN2c2ccn3ncc1c3n2  organ-to-body weight ratio (Sprague-Dawley rat, female, uterus; oral, 20 mg/kg/day, 4 weeks, end of treatment): 0.155 ± 0.03%
Cc1cc(C(=O)Nc2nc3cccc(C)c3n2[C@H]2CCCCN(C(=O)/C=C/CN(C)C)C2)ccn1  cells in G1 phase (Trypanosoma brucei; propidium iodide flow cytometry; bloodstream form; concentration not given, 24 h): 35.2%
COc1ccc([C@@H]2CC(=O)c3c(O)cc(O[C@@H]4O[C@H](CO)[C@@H](O)[C@H](O)[C@H]4O[C@@H]4O[C@@H](C)[C@H](O)[C@@H](O)[C@H]4O)cc3O2)cc1O  faecal excretion (Sprague-Dawley rat, male, lean, faeces; oral, 100 mg/kg, 12-24 h): 2670 ± 1060 ng
O[Si](CCCN1CCCCC1)(c1ccc(F)cc1)C1CCCCC1 (stereo not drawn)  plasma concentration (mouse; oral, 20 mg/kg, 0.5 h): 0.0898 µM
COc1cnc2cccc(N3CCc4c(cc(Cn5ccnc5)cc4-c4cn(C)nc4C(F)(F)F)C3=O)c2c1  body weight (BALB/c nude mice, MV4-11 xenograft; intraperitoneal, 100 mg/kg, day 24): 24.2 g and 21.6 g and 23.5 g and 25.3 g and 25.9 g and 24 g
CC[C@H](C)[C@H](NC(=O)[C@H](CCCCN)NC(=O)CNC(=O)[C@H](CC(C)C)NC(=O)[C@H](Cc1ccccc1)NC(=O)[C@H](CCCCN)NC(=O)[C@H](CO)NC(=O)[C@H](Cc1ccccc1)NC(=O)[C@H](Cc1c[nH]c2ccccc12)NC(=O)[C@H](CCC(N)=O)NC(=O)[C@@H](NC(=O)[C@H](Cc1ccccc1)NC(=O)CCCCCNC(=O)CN1CCN(CC(=O)O)CCN(CC(=O)O)CCN(CC(=O)O)CC1)C(C)C)C(=O)N[C@@H](CCC(=O)O)C(=O)N1CCC[C@H]1C(=O)N[C@@H](CC(=O)O)C(=O)N[C@H](C(=O)N[C@@H](CO)C(=O)N[C@@H](CCC(N)=O)C(=O)N[C@H](C(=O)N[C@@H](CCC(N)=O)C(=O)N[C@@H](CC(=O)O)C(=O)N1CCC[C@H]1C(=O)N[C@@H](CC(N)=O)C(=O)N[C@@H](CC(=O)O)C(=O)N[C@@H](CCC(N)=O)C(=O)N[C@@H](Cc1ccc(O)cc1)C(=O)N[C@@H](CCC(=O)O)C(=O)N1CCC[C@H]1C(=O)N[C@@H](Cc1ccccc1)C(=O)O)C(C)C)C(C)C [copper-64 labelled]  SUVmean (dynamic PET; mouse both sexes, CT26 tumour, checkpoint inhibitor-treated, tumour; intravenous, 100 µCi/mouse, 390 s): 3.2 SUV
